Experimental data from different studies.
Numbered parts are unrelated; each lists some results of a single study.

Set 1 — technique: protein binding microarray; form: double-stranded DNA, one strand shown; medium: in vitro; tested at: not given; reference: not given; direction: higher = stronger binding; quantity: E-score
Target: Histone acetyltransferase KAT6A, winged helix 2, GST fusion (KAT6A, Homo sapiens, UniProt Q92794, residues 85-181)
Notes: 8-mer, flanks averaged, mean of 2 arrays, mostly near background
Construct (chain): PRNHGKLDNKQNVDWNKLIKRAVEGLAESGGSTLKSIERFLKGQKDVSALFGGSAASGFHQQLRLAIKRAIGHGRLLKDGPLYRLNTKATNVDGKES
CGCAAATC: 0.00421
ACGTCAGC: 0.0424
CGGCCCTC: 0.0952
CGACAGGA: 0.108
CGCTACCG: -0.00379
ATGGATTA: -0.0336
CGAAAAGC: 0.0863
GTTGTGTA: -0.123
ATATTCTA: -0.0306
AGCTCAAG: -0.136
CCCGCGTC: 0.179
AATGGACA: 0.16
CTTCCATA: -0.0956
ACCTAGGG: -0.107
ACCTTTAG: -0.0711
TGAGGCCA: 0.102
AAGTTCGT: 0.0581
GCGGAATA: 0.117
GAGAAGGC: 0.0894
CGCCATAA: 0.0792

Set 2 — technique: RNA Bind-n-Seq; form: RNA; medium: in vitro; tested at: 365 nM; reference: no-protein control; direction: higher = stronger binding; quantity: RBNS enrichment (R)
Target: RNA binding protein fox-1 homolog 2, RRM domain, GST-SBP tag (RBFOX2, Homo sapiens, UniProt O43251-10, residues 100-194)
Notes: natural RNA segment, single round, ends assumed
Construct (chain): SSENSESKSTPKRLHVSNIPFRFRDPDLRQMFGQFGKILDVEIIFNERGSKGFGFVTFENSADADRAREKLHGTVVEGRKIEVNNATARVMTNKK
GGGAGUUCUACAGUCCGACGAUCGUGUAUCACCUGGUGAGCGAGUGACUGAAACCUGCUCUGGUCUGGGUUUGACCAGGUUAGGACUAUUCUUUCUGUGAAGGAUUGUUUGAUUGUAGUAACUCUAUUGGCAUUGGAAUUCUCGGGUGCCAA: 0.438
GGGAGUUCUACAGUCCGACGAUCUUGCCAAAGCCCUCAUAAAGCCCUCCGGCUUGAGGAGAGAGUGUAUAGUCAUGGGUUCUGCCUCUGUGCCCUUGCUGGCCGCUUCUCCUCUGCCUUCUUUCCUGGAACUCUGGAAUUCUCGGGUGCCAA: 0.359
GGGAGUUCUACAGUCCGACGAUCUCAAUUUCAAAGCUCCAUUUCAUAAAGGGGCUACUUUGAAGGAGUUAAGAUGGAAGACUUCCUUCUUGACAAAUUGUGUUUUUAGUGAAUUUCUUAAACCGUUUUAUUUAUGGAAUUCUCGGGUGCCAA: 0.609
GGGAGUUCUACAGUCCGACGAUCUCACCAGUGAGUUAGCAGCACGUGUUCCCGACAUAACAUUGUACUGUAAUGGAGUGAGCGUAGCAGCUCAGCUCUUUGGAUCAGUCUUUGUGAUUUCAUAGCGAGUUUUCUGGAAUUCUCGGGUGCCAA: 0.446
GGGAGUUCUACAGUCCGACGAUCGAUUGUUUUGUGAUGCUUGCCCUGCCUCGGUAUUGCCAGUUUCUUGUGCAAUAAAGAAUCAGCAGCCAUGGGUGGUGUCAGUGUAGCUGUUUAUACACAUUCUGUUGCAGUGGAAUUCUCGGGUGCCAA: 0.388
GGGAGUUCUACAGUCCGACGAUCGUCGGGAACACAGCCGCUCCCCUCUGCUCUGCACCCCACUCGUGGGGGAACACAGCCGCUCCCCUCUGCUCUGCACCCCACUCGUGGGGGAACACAGCCGCUCCCCUCUGUGGAAUUCUCGGGUGCCAA: 0.336
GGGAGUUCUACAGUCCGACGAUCCAGAAAAGGGACACCCUUUUAUGGUGUCAACUUUUGGAUCUGGGUUUCCCCCAGAUGUUGGGUUGCAUGCCAAUAAACAUGUGGCUUCUUCUCAAAGCCUGUCUUCAAAAUGGAAUUCUCGGGUGCCAA: 0.639
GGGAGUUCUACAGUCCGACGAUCUAAAUUCUCAGGUCAGAACAUAACAUUUCUCAUUUGUUAAAAGCAGCAAGAAGCCUGGUAAAACUGUGACUUUUCCCCAAACGUCAAUCUUUAUUAGAAAGCAUUUUCUAUGGAAUUCUCGGGUGCCAA: 0.525
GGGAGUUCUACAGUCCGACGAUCCCCCAUCGCUACCAUUUGGCCAAACAACCGGCUACAAUGCUCUUCCUCUUCUGGAAUGUUGCUGACCCAGGCCGUGGACUUGGCUGAGCACUGUUAGACACACACAGACCUGGAAUUCUCGGGUGCCAA: 0.667

Set 3 — technique: protein-binding microarray; form: double-stranded DNA, one strand shown; medium: in vitro; tested at: 250 nM; notes: 60-bp whole probe; added: salmon DNA 0.4 mg/ml; reference: random background probes; direction: higher = stronger binding; quantity: log fluorescence; shared flanks, not repeated: GCCTAGCAC … GTCTTGATTCGCTTGACGCTGCTG
Target: Interferon regulatory factor 7, full length, phosphomimetic (IRF7, Homo sapiens, UniProt Q92985, residues 1-503, S101K/S471D/S472D/S475D/S476D/S477D/S483D/S484D/S487D)
Chain of UniProt Q92985 (whole entry, unmodified, looked up): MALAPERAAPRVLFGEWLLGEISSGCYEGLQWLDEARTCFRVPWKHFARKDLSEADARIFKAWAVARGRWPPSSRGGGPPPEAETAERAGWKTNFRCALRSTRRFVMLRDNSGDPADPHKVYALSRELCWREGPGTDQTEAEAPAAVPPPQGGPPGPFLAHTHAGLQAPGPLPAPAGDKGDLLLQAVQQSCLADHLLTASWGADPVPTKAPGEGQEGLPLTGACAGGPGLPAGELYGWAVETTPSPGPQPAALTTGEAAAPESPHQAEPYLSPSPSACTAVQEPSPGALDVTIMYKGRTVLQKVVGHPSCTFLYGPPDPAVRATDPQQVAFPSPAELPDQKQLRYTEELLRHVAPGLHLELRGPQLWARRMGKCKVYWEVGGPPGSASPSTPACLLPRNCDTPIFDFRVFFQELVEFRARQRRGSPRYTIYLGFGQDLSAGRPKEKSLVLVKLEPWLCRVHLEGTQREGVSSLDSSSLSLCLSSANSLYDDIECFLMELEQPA
TCAATGTTCCCTATTTAACTGTGCTAG: 3.39 z-score
GACGGACTGCTCATCCTGACGTGCTAG: -0.809 z-score
TTTGATTCCAGTTTCGATTAGTGCTAG: 9.08 z-score
GACGAACTGGGGTTTCGAGCCGTGCTA: 0.322 z-score
TCATGGATGTGTTTTAAACTGTGCTAG: -0.425 z-score
TTAGGACTGGACACTGGGTTAGTGCTA: -0.528 z-score
GACGGTATCGGGTATCGGAACGTGCTA: 0.689 z-score
GACGATATCGGGTATTGAGACGTGCTA: -0.317 z-score
GACGGATTGGGACTGGGGACGTGCTAG: -0.382 z-score
GACGGTTTCGCCACTGGGGACGTGCTA: 1.47 z-score
TCATCATTGCCTATTTTTCCGTGCTAG: 0.359 z-score
GACGGTATCGGTATAGGGACGTGCTAG: 0.96 z-score
TTAGGTTTCGGACTGGGTTTGTGCTAG: 3.6 z-score
TTAGAACTGGGGTATCGATGAGTGCTA: -0.558 z-score
TCCCCGGAGCTGGACAGAAGGTGCTAG: -0.72 z-score
GGAAATTCCAAGTTCATGGGGTGCTAG: 0.403 z-score
CTAGAGATTTTTCTCAACCGGTGCTAG: -0.019 z-score
TTTGCTCTGTGCATAGGCCTGTGCTAG: -0.2 z-score
TCAATGTTCCTTATTTAACTGTGCTAG: 1.33 z-score
TGTTGGTAATTTTGCTATTTGTGCTAG: 0.0322 z-score
GACGGTCTCCTTTTCCTTACGTGCTAG: 1.16 z-score

Set 4 — technique: RNA Bind-n-Seq; form: RNA; medium: in vitro; tested at: not given; reference: input RNA pool; direction: higher = stronger binding; quantity: bound/input enrichment
Target: RING finger protein unkempt homolog, zinc fingers 1-6, GST-SBP tag (UNK, Homo sapiens, UniProt Q9C0B0, residues 30-357)
Notes: RNA with constant flanks, human and mouse sites, ends assumed
Target sequence (chain): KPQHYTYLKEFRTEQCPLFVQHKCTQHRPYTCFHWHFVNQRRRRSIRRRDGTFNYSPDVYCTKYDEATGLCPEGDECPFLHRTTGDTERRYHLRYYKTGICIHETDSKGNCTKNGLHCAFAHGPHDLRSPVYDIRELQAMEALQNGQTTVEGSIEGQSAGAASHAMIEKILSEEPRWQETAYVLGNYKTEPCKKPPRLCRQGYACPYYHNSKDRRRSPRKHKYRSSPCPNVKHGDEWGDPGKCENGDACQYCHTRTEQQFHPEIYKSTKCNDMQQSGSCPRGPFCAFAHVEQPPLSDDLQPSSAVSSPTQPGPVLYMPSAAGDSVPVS
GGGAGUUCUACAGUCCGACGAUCAAUGUAGAUUUUUGCUUUUCCUGUUUUUGUUUUGAAAAGUUACUCCAAUUGCUAAAUUGGUAGUUUUUUUGUCCUUAUAAAUAUAACAUUUAAAAAAGAUACACAAUUAUAUAAAAUGUUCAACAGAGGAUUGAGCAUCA: 3.87 ratio
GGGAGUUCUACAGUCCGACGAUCCUUACGUGUUUCCCUUUCCUUCGUUUGGUUGGUUGGUGGGAAGGUGGGUGGGUUUGUGUUUCCGUGUUGGCAGAUCUGGAGUAACGUGAGCUCUGGCAAUAAUGGCAGGCAGGCAGGUCACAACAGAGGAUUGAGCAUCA: 0.263 ratio
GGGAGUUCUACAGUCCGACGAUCGAGGAGUUAGAUACCUUAUUAAGCAAUUUUUGUGAACUCUCCACUCCUGGAGGUGUAGAGAAUAGUUAUGGGAAAAUAAACAUCUUACUUCAAACUUAUAUCAGCCGAGGAGAAAUGGACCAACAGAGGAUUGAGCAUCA: 2.65 ratio
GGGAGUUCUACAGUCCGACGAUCUGUGAUCAUGCCAAUCCACAGCUUUCAAAUCCAAGCCCUUUUCAGACACUUGGGCUGGACUUAGUUUUGGAAUGUGUUGCUAGGUACCAGCCUAAGCAGCGUUCAAUGUUUACCUUUGUACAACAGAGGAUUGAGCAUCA: 0.128 ratio
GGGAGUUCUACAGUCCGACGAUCAUGAUGAAGCUAUCAGAAGAAAAUCGGCACCUGAGAGAUGAAGGUUUAAGGCUCAGAAAGGUAGCACAUUCGGAUAAACCUGGAUCAACCUCAACUGCAUCCUUCAGAGAUAAUGUCACCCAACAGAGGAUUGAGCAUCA: 0.096 ratio
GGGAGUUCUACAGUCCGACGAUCCCAGUACCUCUCAAACGAUCUUUAGAUAGUUAACUUCUACUACUAUUUAACGUUAUCUUUUAGCACUCAUAGAACAAACCAAGAUAUGGAAGAAGACAUAUUCAAAAGGUGGGCUUGUCUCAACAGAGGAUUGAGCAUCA: 9.25 ratio
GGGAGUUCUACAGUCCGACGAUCUUCUUCUUCCAGGGUCUGAUCCCCUUUGGUAUAGAUAAGGAAGUCCCGGUUGUAACUCUUUGAAUUGAAGCCAUUGAUUUGCAUAGUGCCUUAUGACUUUAAAAGAAGUUCUCAUUUGAACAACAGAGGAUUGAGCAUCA: 0.104 ratio
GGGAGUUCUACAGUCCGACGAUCUCUUUAGAUCGGACUGCCCCACCAGAUGGUAGAGCUAGUGCUGAUCAUAUUGUUAUUUCCUUAUCUGAUAUGGCAUCUUCUAUCAUAGAAUCUGUAGUACCUAAACCUGAAGGGCCAGUUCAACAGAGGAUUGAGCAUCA: 1.27 ratio

A few entries again (set 2):
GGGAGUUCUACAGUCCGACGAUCUCACCAGUGAGUUAGCAGCACGUGUUCCCGACAUAACAUUGUACUGUAAUGGAGUGAGCGUAGCAGCUCAGCUCUUUGGAUCAGUCUUUGUGAUUUCAUAGCGAGUUUUCUGGAAUUCUCGGGUGCCAA: 0.446
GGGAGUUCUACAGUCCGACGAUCUUGCCAAAGCCCUCAUAAAGCCCUCCGGCUUGAGGAGAGAGUGUAUAGUCAUGGGUUCUGCCUCUGUGCCCUUGCUGGCCGCUUCUCCUCUGCCUUCUUUCCUGGAACUCUGGAAUUCUCGGGUGCCAA: 0.359
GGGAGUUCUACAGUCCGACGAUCUAAAUUCUCAGGUCAGAACAUAACAUUUCUCAUUUGUUAAAAGCAGCAAGAAGCCUGGUAAAACUGUGACUUUUCCCCAAACGUCAAUCUUUAUUAGAAAGCAUUUUCUAUGGAAUUCUCGGGUGCCAA: 0.525
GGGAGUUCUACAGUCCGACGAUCUCAAUUUCAAAGCUCCAUUUCAUAAAGGGGCUACUUUGAAGGAGUUAAGAUGGAAGACUUCCUUCUUGACAAAUUGUGUUUUUAGUGAAUUUCUUAAACCGUUUUAUUUAUGGAAUUCUCGGGUGCCAA: 0.609
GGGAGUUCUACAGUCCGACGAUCGUCGGGAACACAGCCGCUCCCCUCUGCUCUGCACCCCACUCGUGGGGGAACACAGCCGCUCCCCUCUGCUCUGCACCCCACUCGUGGGGGAACACAGCCGCUCCCCUCUGUGGAAUUCUCGGGUGCCAA: 0.336
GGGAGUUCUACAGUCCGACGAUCGUGUAUCACCUGGUGAGCGAGUGACUGAAACCUGCUCUGGUCUGGGUUUGACCAGGUUAGGACUAUUCUUUCUGUGAAGGAUUGUUUGAUUGUAGUAACUCUAUUGGCAUUGGAAUUCUCGGGUGCCAA: 0.438
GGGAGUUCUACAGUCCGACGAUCGAUUGUUUUGUGAUGCUUGCCCUGCCUCGGUAUUGCCAGUUUCUUGUGCAAUAAAGAAUCAGCAGCCAUGGGUGGUGUCAGUGUAGCUGUUUAUACACAUUCUGUUGCAGUGGAAUUCUCGGGUGCCAA: 0.388
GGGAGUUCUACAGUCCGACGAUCCCCCAUCGCUACCAUUUGGCCAAACAACCGGCUACAAUGCUCUUCCUCUUCUGGAAUGUUGCUGACCCAGGCCGUGGACUUGGCUGAGCACUGUUAGACACACACAGACCUGGAAUUCUCGGGUGCCAA: 0.667
